Measured values of several laboratories.
Parts stem from different laboratories: compare values within a part only. Numbers after ± are the reported error.

Set 1 — route: oral; time: 4 weeks
Compound: O=C1NC2(CC2)COc2ncc(F)cc2[C@H]2COCCN2c2ccn3ncc1c3n2
| species | medium | dose | organ weight [g] |
| --- | --- | --- | --- |
| Sprague-Dawley rat, female | thymus | 5 mg/kg/day | 0.601 ± 0.16 |
| Sprague-Dawley rat, female | adrenals | 10 mg/kg/day | 0.07 ± 0.012 |
| Sprague-Dawley rat, male | kidneys | 5 mg/kg/day | 3.07 ± 0.178 |
| Sprague-Dawley rat, female | uterus | 10 mg/kg/day | 0.521 ± 0.2 |
| Sprague-Dawley rat, male | heart | 10 mg/kg/day | 1.79 ± 0.24 |
| Sprague-Dawley rat, male | liver | 20 mg/kg/day | 15.2 ± 2.17 |

Single results of other studies
| Molecule | tested on | test | system | conditions | scale | quantity | result |
| --- | --- | --- | --- | --- | --- | --- | --- |
| CCCCCCCCCCCCCCC(=O)N[C@@H](CCCCNC(=O)CN1CCN(CC(=O)O)CCN(CC(=O)O)CCN(CC(=O)O)CC1)C(=O)NCCCC[C@@H]1NC(=O)[C@@H](Cc2ccccc2)NC(=O)[C@H](CC(=O)O)NC(=O)CNC(=O)[C@H](CCCNC(=N)N)NC1=O [actinium-225 labelled] |  |  | BxPC-3 xenograft mice, blood | 40 kBq, end of study |  | GOT and GPT levels | increased |
| CC(C)CC(C(=O)N1CC2(CC1C#N)C(=O)Nc1ccccc12)N(C)C(=O)c1cc2c(F)cc(F)c(F)c2[nH]1 (stereo not drawn) | Human coronavirus 229E | cytopathic effect | MRC5 | 49.75 nM |  | inhibition | 94.9% |
| ORF34 W160A (Kaposi's sarcoma-associated herpesvirus) | ORF24 1-400 | pull-down |  |  | reference: wild-type ORF34, higher = more binding | relative binding | 0.473 |
| CC[C@@H]1C(=O)N(C)c2cnc(Nc3ccc(C(=O)NCCCC[C@H](NC(=O)[C@@H](NC(=O)[C@H](CO)NC(=O)[C@H](Cc4cncn4CCCCCCCCc4ccccc4)NC(=O)[C@H](CC(C)C)NC(=O)[C@@H]4CCCN4C(C)=O)[C@@H](C)CP(=O)(O)O)C(N)=O)cc3OC)nc2N1C1CCCC1 | Caco-2 |  |  | 10 µM, 2 h |  | Papp B-A | 0.0129 ×10⁻⁶ cm/s |
| ORF34 Y310A (Kaposi's sarcoma-associated herpesvirus) | ORF24 1-400 | pull-down |  |  | reference: wild-type ORF34, higher = more binding | relative binding | 0.956 |
| CC(C)[C@H]1NC(=O)C[C@H]2/C=C/CCSSC[C@@H](NC1=O)C(=O)N[C@H](Cc1cccc3ccccc13)C(=O)NCC(=O)O2 | Protein kinase C gamma type (PRKCG, Homo sapiens, UniProt P05129) | enzyme activity, inhibitor |  | 10 µM |  | inhibition | -2.5% |

Repeated from above (single results of other studies):
| Molecule | tested on | test | system | conditions | scale | quantity | result |
| --- | --- | --- | --- | --- | --- | --- | --- |
| ORF34 W160A (Kaposi's sarcoma-associated herpesvirus) | ORF24 1-400 | pull-down |  |  | reference: wild-type ORF34, higher = more binding | relative binding | 0.473 |
| CC[C@@H]1C(=O)N(C)c2cnc(Nc3ccc(C(=O)NCCCC[C@H](NC(=O)[C@@H](NC(=O)[C@H](CO)NC(=O)[C@H](Cc4cncn4CCCCCCCCc4ccccc4)NC(=O)[C@H](CC(C)C)NC(=O)[C@@H]4CCCN4C(C)=O)[C@@H](C)CP(=O)(O)O)C(N)=O)cc3OC)nc2N1C1CCCC1 | Caco-2 |  |  | 10 µM, 2 h |  | Papp B-A | 0.0129 ×10⁻⁶ cm/s |
